Results from different studies.
Parts stem from different laboratories: compare values within a part only. “And” joins repeats or separate records; there may be more than shown.

Block 1
Cell line: HEK-293T
Effect on: pseudovirus infection
Method: FDA-approved drug library counter-screen
Organism: VSV pseudotyped with VSV-G
Tested at: 10 µM
Time: 16 h
Relative to: vehicle-treated
`CC(=O)O[C@H]1C[C@@H]2CC[C@@H]3[C@H](CC[C@@]4(C)[C@H]3C[C@H]([N+]3(C)CCCCC3)[C@@H]4OC(C)=O)[C@@]2(C)C[C@@H]1[N+]1(C)CCCCC1` has a GFP-positive cells of 103%.
`C#C[C@]1(O)CC[C@H]2[C@@H]3CCc4cc(O)ccc4[C@H]3CC[C@@]21C` gave a GFP-positive cells of 80.1%.
`OC(CCCN1CCCCC1)(c1ccccc1)c1ccccc1` gave a GFP-positive cells of 93%.

Block 2
Cell line: HEK-293T-ACE2-TMPRSS2
Method: cell count
Tested at: concentration not given
With `O=C(Cn1ncc(Cl)c(Cl)c1=O)NC(=O)NCc1ccco1` the viability was 99%.
The viability of `CC(=O)OC(C(=O)Oc1ccc2c(c1)C(C)=CC(C)(C)N2)c1ccccc1` (stereo not drawn) is reported as 77%.
For `COc1ccc(CNC(=O)c2scc(-c3cccc(C)c3)c2-n2cccc2)cc1OC`, the viability was 69%.
`Cn1c(=O)n(C)c2cc(C(=O)CSc3ccc(NC(=O)Nc4ccccc4)cc3)ccc21` gave a viability of 77%.

Mixed results
With `CO[C@@H]1[C@@H](OC(N)=O)[C@@H](O)[C@H](Oc2ccc3c(O)c(NC(=O)c4ccc(O)c(CC=C(C)C)c4)c(=O)oc3c2C)OC1(C)C` the surviving fraction was 1.26 and 1.13 and 1.16 (RPE-1 wild type; 100 µM; relative to: untreated).
`COc1ccc(-c2c(Nc3ccccn3)[nH]c3c(C4=CCCCC4)c(-c4ccccc4)nn3c2=O)cc1` — result for “grade 3 tumour pain incidence”: 5% (patients with advanced malignancies; oral, dose not given, treatment-emergent adverse events).

Repeated from above (block 1):
`CC(=O)O[C@H]1C[C@@H]2CC[C@@H]3[C@H](CC[C@@]4(C)[C@H]3C[C@H]([N+]3(C)CCCCC3)[C@@H]4OC(C)=O)[C@@]2(C)C[C@@H]1[N+]1(C)CCCCC1` has a GFP-positive cells of 103%.
